Measurements gathered from unrelated publications.
Protocols differ between the studies behind these lines. ± gives the spread as reported.

Compound	test	test system	setting	scale	endpoint	result
CN1CCN(c2cc(-c3ccccc3CO)c(N(C)C(=O)C(C)(C)c3cc(C(F)(F)F)cc(C(F)(F)F)c3)cn2)CC1	–	human plasma	–	unbound fraction	fu	< 0.03
COc1ccc(-c2csc(N/N=C(\C)c3cc(O)cc(O)c3)n2)cc1	equilibrium dialysis	human, male, plasma	3 µM, 5 h, pH 7.4	–	unbound fraction	0.18%
C=C1C[C@@]23CC[C@H]4[C@@](C)(CCC[C@@]4(C)C(=O)O[C@@H]4O[C@H](CO)[C@@H](O)[C@H](O)[C@H]4O)[C@@H]2CC[C@]1(O[C@@H]1O[C@H](CO[C@H]2O[C@H](CO)[C@@H](O)[C@H](O)[C@H]2O)[C@@H](O)[C@H](O)[C@H]1O[C@@H]1O[C@H](CO)[C@@H](O)[C@H](O)[C@H]1O)C3	H&E staining	C57BL/6N mouse, high-fat diet	drinking water, 0.2 g/L, 16 weeks	–	liver histology	no effect
Oc1ccc2ccccc2c1/N=N/c1ccc(/N=N/c2ccccc2)cc1	–	extracted rat blood QC samples	0.5 µg/L, 8 h, room temperature, short-term stability	–	measured concentration	0.524 µg/L
COc1ccc(-c2ccn(CC[C@](C)(C(=O)NO)S(C)(=O)=O)c(=O)c2)c(F)c1	–	CF-1 mouse, female	subcutaneous, 18.75 mg/kg	–	AUC	5090 ± 1040 ng·h/mL
O=c1nc(NO)ccn1[C@@H]1O[C@H](CO)[C@@H](O)[C@H]1O	Western blot, measured: CYP1A2	rat, arthritis model, liver	oral, 80 mg/kg twice daily, 5 days	relative to: control group	protein level	1.5 fold
CCOC(=O)c1[nH]c(C)c(/C=C/c2c(I)c(C)c3n2[B-](F)(F)[N+]2=C(C)C(I)=C(C)C2=C3c2cc(OC)cc(OC)c2)c1C	–	dichloromethane	–	–	log molar absorptivity	4.85 M⁻¹ cm⁻¹
N=C(N)NCCC[C@@H]1NC(=O)[C@H](Cc2c[nH]c3ccccc23)NC(=O)[C@@H](CC2CCCCC2)NC(=O)[C@@H]2CCCN2C(=O)[C@@H](NC(=O)CCc2ccccc2)CCCNC1=O	–	C57BL/6J mice, plasma	intraperitoneal, 1 mg/kg, two-compartment model	–	elimination rate constant	0.00114 s⁻¹
C=CC(=O)Nc1cc(Nc2nccc(-c3cn(C4CC4)c4ccccc34)n2)c(OC)cc1NC	radiolabelled metabolite profiling	human male, plasma	oral, 110 mg, 4 h	–	plasma concentration	7.75 ng/g
Cn1c(=O)oc2ccc(-c3ccc(CC(C#N)NC(=O)C4CNCCCO4)c(F)c3)cc21 (stereo not shown)	–	human	oral, 10 mg once daily, treatment-related AE, multiple ascending dose	–	bilirubin increased incidence	0%
CC(C)[C@H](NC(=O)CNC(=O)[C@H](CCC(N)=O)NC(=O)[C@H](C)N)C(=O)O	LC-MS/MS	human, male, plasma	intravenous, 20 mg/kg three times daily, day 1, first dose, 10 min infusion, geometric mean	–	Cmax	4390 ng/mL
COc1ccc(/C=C/C2=[N+]3C(=C(COC(C)=O)c4c(C)cc(/C=C/c5ccc(OC)cc5)n4[B-]3(F)F)C(C)=C2)cc1	–	acetonitrile	room temperature	–	luminescence quantum yield	15 ± 2%
CCCC[C@@H]1NC(=O)[C@@H](NC(=O)[C@H](CCC(=O)O)NC(=O)CNC(=O)CN2CCN(CC(=O)O)CCN(CC(=O)O)CCN(CC(=O)O)CC2)CCCCNC(=O)C[C@@H](C(N)=O)NC(=O)[C@H](C(C)C)NC(=O)[C@@H]2CCCN2C(=O)[C@H](CCCNC(=N)N)NC(=O)CNC(=O)[C@H](Cc2c[nH]c3ccccc23)NC(=O)[C@H](CCCNC(=N)N)NC(=O)[C@@H](Cc2ccccc2)NC(=O)[C@H](Cc2c[nH]cn2)NC(=O)[C@H](CCC(=O)O)NC1=O [gallium-67 labelled]	–	C57 mice with B16/F1 melanoma	intravenous, 0.037 MBq/mouse, 2 h	relative to: tumour over blood	tumour to blood ratio	259
Cc1cc2c(cc1C1(c3ncc(C(=O)O)cn3)CC1)C(C)(C)CCC2(C)C	–	Sprague-Dawley rat, male, plasma	oral, 100 mg/kg, 6 h, sesame oil vehicle	–	HDL level	47 ± 6 mg/dL
C[N+](C)(Cc1cn(CCOCCOCCO[C@@H]2O[C@H](CO)[C@@H](O)[C@H](O)[C@H]2O)nn1)C[B-](F)(F)F	chemical stability, NMR	aqueous buffer	2 mg/mL, pH 7.5	–	half-life	40 days
CCC/C(=C\C1=C(C(F)(F)F)C(=O)c2ccccc2C1=O)C(=O)N(CC)CC	–	human liver S9	1 µM, phase II UGT conditions	–	CLint	23.2 mL/min/kg

Some of these lines once more:
Compound	test	test system	setting	scale	endpoint	result
CC(C)[C@H](NC(=O)CNC(=O)[C@H](CCC(N)=O)NC(=O)[C@H](C)N)C(=O)O	LC-MS/MS	human, male, plasma	intravenous, 20 mg/kg three times daily, day 1, first dose, 10 min infusion, geometric mean	–	Cmax	4390 ng/mL
C=C1C[C@@]23CC[C@H]4[C@@](C)(CCC[C@@]4(C)C(=O)O[C@@H]4O[C@H](CO)[C@@H](O)[C@H](O)[C@H]4O)[C@@H]2CC[C@]1(O[C@@H]1O[C@H](CO[C@H]2O[C@H](CO)[C@@H](O)[C@H](O)[C@H]2O)[C@@H](O)[C@H](O)[C@H]1O[C@@H]1O[C@H](CO)[C@@H](O)[C@H](O)[C@H]1O)C3	H&E staining	C57BL/6N mouse, high-fat diet	drinking water, 0.2 g/L, 16 weeks	–	liver histology	no effect
CCCC[C@@H]1NC(=O)[C@@H](NC(=O)[C@H](CCC(=O)O)NC(=O)CNC(=O)CN2CCN(CC(=O)O)CCN(CC(=O)O)CCN(CC(=O)O)CC2)CCCCNC(=O)C[C@@H](C(N)=O)NC(=O)[C@H](C(C)C)NC(=O)[C@@H]2CCCN2C(=O)[C@H](CCCNC(=N)N)NC(=O)CNC(=O)[C@H](Cc2c[nH]c3ccccc23)NC(=O)[C@H](CCCNC(=N)N)NC(=O)[C@@H](Cc2ccccc2)NC(=O)[C@H](Cc2c[nH]cn2)NC(=O)[C@H](CCC(=O)O)NC1=O [gallium-67 labelled]	–	C57 mice with B16/F1 melanoma	intravenous, 0.037 MBq/mouse, 2 h	relative to: tumour over blood	tumour to blood ratio	259
